Results gathered from unrelated publications.
Lines come from different studies, so protocols differ. ± gives the spread as reported.

The CC50 of `O=C(c1ccc(Cl)c(Cl)c1)N1CCCC2=CC3CC(CN4CCCCC34)C21` (centres unmarked) is reported as over 267 µM (Huh-7; cytotoxicity).
For `N=C(N)NCCC[C@@H]1NC(=O)[C@H](Cc2csc3ccccc23)NC(=O)[C@@H](Cc2ccccc2)NC(=O)[C@H](Cc2ccccc2)NC(=O)[C@H](CCC(=O)NCCOCCOCC(=O)N[C@@H](CCCCNC(=O)c2ccc3c(c2)C(=O)OC32c3ccc4cc(O)ccc4c3Oc3c2ccc2cc(O)ccc32)C(N)=O)NC(=O)[C@@H](CCCNC(=N)N)NC(=O)[C@H](CCCNC(=N)N)NC(=O)[C@@H](CCCNC(=N)N)NC1=O`, the cellular uptake was 94 ± 10% (HeLa; flow cytometry; 0.5 µM, 2 h, 1% FBS; baseline: CPP12).
`CCCCn1cc(C(=O)O)c(=O)c2cc(F)c(Nc3cccc(Cl)c3)c([N+](=O)[O-])c21` gave an IC50 of 17.6 ± 1.43 µg/mL (T47D; cell growth, SRB; 72 h).
For `COc1c(C(=O)/C=C(\O)c2ccccc2)ccc2c1C=CC(C)(C)O2`, the viability was 101 ± 1.4% (differentiated SH-SY5Y; MTT; 10 µM; baseline: control).
Under cytotoxicity, `CC[C@H](C)[C@H](NC(=O)CNC(=O)[C@H](CCCNC(=N)N)NC(=O)[C@H](CCCCN)NC(=O)CNC(=O)[C@H](CC(N)=O)NC(=O)CNC(=O)CNC(=O)CNC(=O)[C@H](CC(C)C)NC(=O)[C@H](C)NC(=O)CNC(=O)[C@H](Cc1c[nH]c2ccccc12)NC(=O)[C@H](Cc1ccc(O)cc1)NC(=O)CNC(=O)[C@H](CCCNC(=N)N)NC(=O)[C@H](CCSC)NC(=O)CNC(=O)[C@H](CCCCN)NC(=O)[C@H](CC(N)=O)NC(=O)[C@H](Cc1ccccc1)NC(=O)[C@H](CCCCN)NC(=O)[C@@H](N)CC(N)=O)C(=O)N[C@@H](CCCNC(=N)N)C(=O)NCC(=O)N[C@@H](Cc1ccc(O)cc1)C(=O)N[C@@H](CC(=O)O)C(=O)O` is recorded as “not toxic” (SK-BR-3; MTT; 1 nM to 10 µM, 24 h).
Under cytotoxicity, `CCO[C@H]1[C@H](O)[C@@H](N)[C@@H](O[C@H]2[C@H](O[C@@H]3O[C@H](CO)[C@@H](O[C@H]4O[C@@H](CN)[C@@H](O)[C@H](O)[C@H]4N)[C@H]3O)[C@@H](O)[C@H](N)C[C@@H]2N)O[C@@H]1CO` is recorded as “not toxic” (NIH 3T3; alamarBlue; concentration not given).
For `COc1cc2c(c3oc(-c4ccccc4)cc(=O)c13)C=CC(C)(C)O2`, the viability was 102 ± 1.3% (differentiated SH-SY5Y; MTT; 10 µM; baseline: control).
The haemolysis of `CC[C@H](C)[C@H](NC(=O)[C@H](CCCCN)NC(=O)[C@H](C)NC(=O)[C@H](CC(C)C)NC(=O)[C@H](C)NC(=O)[C@H](CO)NC(=O)[C@H](CC(C)C)NC(=O)[C@H](CC(C)C)NC(=O)[C@H](CCCCN)NC(=O)[C@@H]1CCCN1C(=O)[C@H](CC(C)C)NC(=O)[C@H](Cc1ccccc1)NC(=O)[C@H](CCCCN)NC(=O)[C@H](CCCCN)NC(=O)[C@H](CCCCN)NC(=O)[C@H](CCCCN)NC(=O)[C@H](CCCCN)NC(=O)[C@@H](N)CCCCN)C(=O)N[C@@H](CC(C)C)C(N)=O` is reported as 36.6% (horse erythrocytes; MIC against Staphylococcus aureus, 2 h, 37 °C; baseline: Triton X-100).
The viability of `CC1(C)C=Cc2c(cc(O)c3c(=O)cc(-c4ccccc4)oc23)O1` is reported as 105 ± 2% (differentiated SH-SY5Y; MTT; 0.1 µM, 24 h, retinoic acid differentiated; baseline: control).
`CC[C@H](C)[C@H](NC(=O)[C@H](CCCCN)NC(=O)[C@H](CCCCN)NC(=O)[C@H](Cc1ccccc1)NC(=O)[C@H](CC(C)C)NC(=O)[C@H](CCCCN)NC(=O)[C@H](Cc1c[nH]c2ccccc12)NC(=O)[C@@H](CCCCN)NC(C)=O)C(=O)NCC(=O)N[C@@H](C)C(=O)N[C@H](C(=O)N[C@@H](CC(C)C)C(=O)N[C@H](CCCCN)C(=O)N[C@H](C(=O)N[C@@H](CC(C)C)C(N)=O)C(C)C)C(C)C` has a viability decrease of about 80% (RAW264.7; MTT; up to 32 µM).
With `CCCCn1cc(C(=O)O)c(=O)c2cc(F)c(Nc3ccccc3Cl)c(N)c21` the IC50 was 76.4 µM (K562; cell growth or viability, SRB).
`CC(=O)N[C@@H](CO)C(=O)N[C@@H](CC(=O)O)C(=O)N[C@@H](CCCCNC(=O)CCCC[C@@H]1SC[C@@H]2NC(=O)N[C@@H]21)C(=O)N1CCC[C@H]1C(=O)O` has a cellular uptake of 0% (A549; flow cytometry; 40 µg/mL, 0 min, 37 °C; baseline: cells).
With `COC(=O)C1CN1S(=O)(=O)c1ccc2ccccc2c1` (centres unmarked) the IC50 was 610 ± 69 µM (Balb/c 3T3 fibroblasts; cytotoxicity, neutral red uptake; DMEM with 5% FBS; 24 h).
With `CO/C(=C\C(=O)c1ccc2occc2c1OC)c1ccccc1` the viability was 98.4 ± 3.1% (differentiated SH-SY5Y; MTT; 10 µM; baseline: control).

Repeated from above:
`CCCCn1cc(C(=O)O)c(=O)c2cc(F)c(Nc3cccc(Cl)c3)c([N+](=O)[O-])c21` gave an IC50 of 17.6 ± 1.43 µg/mL (T47D; cell growth, SRB; 72 h).
For `COc1c(C(=O)/C=C(\O)c2ccccc2)ccc2c1C=CC(C)(C)O2`, the viability was 101 ± 1.4% (differentiated SH-SY5Y; MTT; 10 µM; baseline: control).
